# Experimental data from different studies.
# Protocols differ between the studies behind these lines. Several values in a cell are separate wells, animals, samples, runs or records. Numbers after ± are the reported error.
# Chain of UniProt O75608 (whole entry, looked up): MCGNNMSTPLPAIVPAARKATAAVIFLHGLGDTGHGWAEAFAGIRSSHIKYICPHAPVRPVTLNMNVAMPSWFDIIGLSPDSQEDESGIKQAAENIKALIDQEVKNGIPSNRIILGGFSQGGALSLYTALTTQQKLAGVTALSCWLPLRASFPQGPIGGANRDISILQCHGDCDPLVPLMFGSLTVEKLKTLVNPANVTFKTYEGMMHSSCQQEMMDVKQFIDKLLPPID
# Chain of UniProt Q9UBS5 (whole entry, looked up): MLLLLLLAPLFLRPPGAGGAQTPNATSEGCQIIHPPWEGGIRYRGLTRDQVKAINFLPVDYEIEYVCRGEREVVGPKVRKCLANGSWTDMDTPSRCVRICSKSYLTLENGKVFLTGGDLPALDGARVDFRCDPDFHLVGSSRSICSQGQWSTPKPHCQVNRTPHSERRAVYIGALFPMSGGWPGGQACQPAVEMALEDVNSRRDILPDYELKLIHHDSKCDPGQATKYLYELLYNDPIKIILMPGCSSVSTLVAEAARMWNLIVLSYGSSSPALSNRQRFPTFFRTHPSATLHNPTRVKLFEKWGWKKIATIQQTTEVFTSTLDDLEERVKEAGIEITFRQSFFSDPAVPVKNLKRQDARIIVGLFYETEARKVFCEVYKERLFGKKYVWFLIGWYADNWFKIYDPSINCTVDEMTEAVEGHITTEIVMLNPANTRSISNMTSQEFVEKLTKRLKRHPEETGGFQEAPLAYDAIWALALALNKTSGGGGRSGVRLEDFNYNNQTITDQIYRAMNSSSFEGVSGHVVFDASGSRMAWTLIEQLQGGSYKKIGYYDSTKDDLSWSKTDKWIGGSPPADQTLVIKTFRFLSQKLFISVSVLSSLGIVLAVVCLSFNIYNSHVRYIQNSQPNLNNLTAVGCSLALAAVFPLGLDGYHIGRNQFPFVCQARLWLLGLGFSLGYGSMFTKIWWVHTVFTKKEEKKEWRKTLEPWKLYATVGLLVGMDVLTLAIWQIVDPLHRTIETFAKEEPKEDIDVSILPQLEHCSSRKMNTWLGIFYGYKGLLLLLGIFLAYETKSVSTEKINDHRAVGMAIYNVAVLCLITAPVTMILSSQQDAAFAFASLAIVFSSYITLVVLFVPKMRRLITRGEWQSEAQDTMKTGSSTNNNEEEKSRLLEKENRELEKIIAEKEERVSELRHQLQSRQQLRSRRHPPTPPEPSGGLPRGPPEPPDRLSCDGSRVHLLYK
SMILES,target or system,test,test system,setting,scale,quantity,value
O=C(c1ccc(Cl)cc1)N1CCN2C(=O)N(OC(=O)N3CCOc4ccccc43)C(=O)C2C1 (stereo not drawn),"Acyl-protein thioesterase 1 (Homo sapiens, UniProt O75608)",MS-based ABPP,SW-620 conditioned medium,"10 µM, 1 h, 37 °C","relative to: compound over DMSO, lower = more inhibition",peptide ratio,0.83 and 0.99 and 1.01 and 0.98
C[C@@H](O)[C@@H](CO)NC(=O)[C@@H](CCCNC(=N)N)NC(=O)[C@@H]1CCCN1C(=O)[C@@H]1CSSC[C@H](NC(=O)[C@H](Cc2ccccc2)NC(=O)CN2CCN(CC(=O)O)CCN(CC(=O)O)CCN(CC(=O)O)CC2)C(=O)N[C@@H](Cc2ccc(O)cc2)C(=O)N[C@@H](Cc2ccccc2)C(=O)N[C@@H](CCC(N)=O)C(=O)N[C@@H](CC(N)=O)C(=O)N1 [gallium-68 labelled],,,"Wistar rat, healthy, Lacrimal gland","intravenous, 8 MBq, 30 min",,tissue uptake,0.15 %ID/g
Cn1cc(C2=C(c3cn(C4CCN(Cc5ccccn5)CC4)c4ccccc34)C(=O)NC2=O)c2ccccc21,iCell Cardiomyocytes (hiPSC-derived),xCELLigence Cardio impedance,,"concentration not given, 2 h",relative to: control,beat rate,59.2%
O=c1cc(-c2ccccc2)oc2c(O)c(O)ccc12,induced SH-SY5Y Aβ-GFP cells,,,5 µM,,neurite branch number,1.8 to 2.1
CC(=O)O[C@H]1CC[C@@]2(C)[C@H](CC[C@@H]3[C@@H]2CC[C@]2(C)[C@@H](C4=CC(=O)OC4)[C@@H](OC(C)=O)C[C@]32O)C1,human iPSC-derived cardiomyocytes,"MyBP-C/MYH ratio, plate-normalised SD score",,"concentration not given, primary screen",direction not given,activity score,6.2
COc1cc(CCC[P+](c2ccccc2)(c2ccccc2)c2ccccc2)c(OC)c2c1OCO2.[I-],NCI-H522,SRB,,,,TGI,-4.92 log M
COC(=O)[C@@]1(O)C[C@H]2O[C@]1(C)n1c3ccccc3c3c4c(c5c6ccccc6n2c5c31)C(=O)NC4,HeLa expressing Ub(G76V)-GFP,"Ub(G76V)-GFP degradation, cycloheximide chase",,12 µM,,inhibition,76%
COc1cc2c(Oc3ccc4[nH]c(C)cc4c3F)ccnc2cc1OCC1(N)CC1,,refers to: grade 1 or 2 intestinal obstruction,paediatric high-risk refractory sarcoma,8 mg,,incidence of adverse event,0%
CC1=C(O)C(=O)C=C2C1=CC=C1[C@@]2(C)CC[C@@]2(C)[C@@H]3C[C@](C)(C(=O)O)CC[C@]3(C)CC[C@]12C,HepG2,"cell viability, CCK-8",,2 µM,higher = more viable cells,optical density,0.963 a.u. and 0.905 a.u. and 0.887 a.u. and 0.888 a.u. and 0.672 a.u. and 0.739 a.u.
C[C@H]1CN(c2n[nH]c3nc(N[C@H]4CC[C@H](NS(=O)(=O)CCC(F)(F)F)CC4)ncc23)CCO1,"Splicing factor 3B subunit 3 (Homo sapiens, UniProt Q15393)","Kinobeads competition, refers to: SF3B3",,"0.032 µM, unit not given",relative to: vehicle,remaining binding,0.98
CC(C)N1CCC(NC2CCN(c3cccc(-c4cc5cc(F)ccc5[nH]4)c3)CC2)CC1,UO-31,,,,,CC50,6.18 µM
CN1CCN(S(=O)(=O)c2cc([N+](=O)[O-])ccc2N(CCOS(C)(=O)=O)CCOS(C)(=O)=O)CC1,HCT-116 wild-type,"cell growth, sulforhodamine B",,96 h,,IC50,5.5 µM
CC[C@H](C)[C@@H]1NC(=O)[C@@H]2CCCN2C(=O)[C@H](CC(C)C)NC(=O)[C@H](CC(C)C)NC(=O)CNC(=O)[C@@H](NC(=O)[C@@H](NC(=O)[C@H](CC(=O)O)NC(=O)CNC(=O)[C@@H](NC(=O)[C@H](C)NC(=O)CNC(=O)[C@H](CCCCN)NC(=O)[C@H](CC(C)C)NC(=O)[C@H](CC(C)C)NC(=O)[C@H](CCCCN)NC(=O)CNC(=O)[C@@H](NC(=O)[C@@H](N)CC(C)C)C(C)C)C(C)C)C(C)C)CSSC[C@@H](C(=O)O)NC1=O,,"RNA-seq, refers to: Il18rap mRNA","mouse traumatic brain injury, frontal cortex and hippocampus",dose not given,relative to: TBI plus compound vs TBI,log2 fold change,-3.3
COc1c(C)c2c(c(O)c1C/C=C(\C)CCC(=O)O)C(=O)OC2,colon cancer cell lines,cell proliferation,,average over lines,,IC50,0.589 µM
COc1cc(Nc2ncc(F)c(Nc3ccc4c(n3)NC(=O)C(C)(C)O4)n2)cc(OC)c1OC,"GABBR1 (Homo sapiens, UniProt Q9UBS5)",,,,,IC50,> 10 µM
c1ccc2[nH]ccc2c1,HCT-8,"RNA-seq, refers to: IFITM10",,concentration not given,,"mRNA level, LS mean",2.16 counts per million
CS(=O)(=O)c1ccc(-c2nnc(/C=C/c3nnc(-c4ccc(C#N)cc4)o3)n2-c2ccccc2Cl)nc1,Apc Q1405X mutant organoids,"organoid viability, AlamarBlue",mouse small intestinal organoids,"6 days, Tnks genotype Tnks+/-",,Hill slope,-1.73
CN1CCN(C2(CNC3CCN(c4cccc(-c5cc6cc(F)ccc6[nH]5)c4)CC3)CCC2)CC1,UO-31,,,,,CC50,6.39 µM
CC[C@H](C)[C@H](NC(=O)[C@H](C)NC(=O)[C@H](CCCCN)NC(=O)[C@H](CC(C)C)NC(=O)[C@H](C)NC(=O)[C@@H](NC(=O)[C@H](Cc1c[nH]cn1)NC(=O)[C@H](CC(C)C)NC(=O)[C@@H](NC(=O)[C@@H](NC(=O)[C@H](CCCCN)NC(=O)[C@H](C)NC(=O)[C@H](C)NC(=O)[C@H](CO)NC(=O)[C@H](CCCCN)NC(=O)[C@H](Cc1ccccc1)NC(=O)[C@@H](NC(=O)[C@H](CCCCN)NC(=O)[C@H](CC(C)C)NC(=O)[C@H](Cc1ccccc1)NC(=O)[C@H](CO)NC(=O)[C@H](CCCCN)NC(=O)[C@H](Cc1c[nH]c2ccccc12)NC(=O)[C@H](CCCCN)NC(C)=O)[C@@H](C)O)[C@@H](C)O)C(C)C)[C@@H](C)O)C(=O)N[C@@H](CO)C(=O)N[C@@H](CO)C(N)=O,Staphylococcus aureus,,ATCC 29213,,,MBC90,8 µg/mL
COc1c(CCC[P+](c2ccccc2)(c2ccccc2)c2ccccc2)cc2c(c1OC)OCO2.[I-],U-251,SRB,,,,LC50,> -4 log M
COc1ccc([C@H]2c3[nH]c4ccc(Cl)cc4c3CCN2C(=O)Oc2ccc(Cl)cc2)cc1,dermal fibroblast and PBMC co-culture,refers to: soluble TNF-alpha,,"0.1 µM, 48 h",,inhibition,35%
CC[C@H](C)[C@H](NC(=O)[C@H](Cc1ccccc1)NC(=O)[C@H](CCC(=O)O)NC(=O)[C@H](CCCNC(=N)N)NC(=O)[C@H](C)NC(=O)[C@H](C)NC(=O)[C@H](CCC(N)=O)NC(=O)[C@H](CCC(=O)O)NC(=O)[C@H](CCC(=O)O)NC(=O)[C@H](CC(C)C)NC(=O)[C@H](Cc1ccc(O)cc1)NC(=O)[C@H](CO)NC(=O)[C@H](CO)NC(=O)[C@@H](NC(=O)[C@H](CC(=O)O)NC(=O)[C@H](CO)NC(=O)[C@@H](NC(=O)[C@H](Cc1ccccc1)NC(=O)[C@@H](NC(=O)CNC(=O)[C@H](CCC(=O)O)NC(=O)[C@H](C)NC(=O)CCc1c[nH]cn1)[C@@H](C)O)[C@@H](C)O)C(C)C)C(=O)N[C@@H](C)C(=O)N[C@@H](Cc1c[nH]c2ccccc12)C(=O)N[C@@H](CC(C)C)C(=O)N[C@H](C(=O)N[C@@H](CCCNC(=N)N)C(=O)NCC(=O)N[C@@H](CCCNC(=N)N)C(=O)N[C@@H](CCCCNC(=O)COCCOCCNC(=O)COCCOCCNC(=O)CC[C@H](NC(=O)CCCCCCCCCCCCCCCCC(=O)O)C(=O)O)C(=O)NCC(=O)NCC(=O)N[C@@H](CO)C(=O)N[C@@H](CCCCNc1c(NCCCCCN(O)C(=O)CCC(=O)NCCCCCN(O)C(=O)CCC(=O)NCCCCCN(O)C(C)=O)c(=O)c1=O)C(=O)O)C(C)C [zirconium-89 labelled],,ex vivo gamma counting,"rat, duodenum content","subcutaneous, 3 nmol/kg, 4 h, together with: [89Zr]-labelled peptide",,tissue uptake,0.08 %ID/g
CC[C@H](C)[C@H](NC(=O)[C@H](CO)NC(=O)[C@H](CC(C)C)NC(=O)[C@H](Cc1ccccc1)NC(=O)CN)C(=O)N[C@@H](CC(C)C)C(=O)N[C@@H](CCCCN)C(=O)N[C@@H](CCCCN)C(=O)N[C@H](C(=O)N[C@@H](CC(C)C)C(=O)N[C@@H](CCCCN)C(=O)N[C@H](C(=O)N[C@@H](CCSC)C(=O)N[C@@H](C)C(=O)N[C@@H](Cc1c[nH]cn1)C(=O)N[C@@H](CCSC)C(=O)N[C@@H](CCCCN)C(=O)N[C@@H](CS)C(N)=O)C(C)C)C(C)C,human red blood cells,,,pH 7.4,relative to: Triton X-100,EC50,16 µM
CC(c1ccccc1)(c1ccc(O)cc1)c1ccc(O)cc1,HepG2 spheroids,Hoechst flow cytometry,,"10 µM, 24 h",,G1 phase cells,73.6 ± 4.63%
